# Measured values of several laboratories.
# Numbered parts are unrelated; each lists some results of a single study. Values joined by “and” are separate records of one study, mostly repeats; a detail may differ.
# UniProt P52333, sequence (whole entry, looked up): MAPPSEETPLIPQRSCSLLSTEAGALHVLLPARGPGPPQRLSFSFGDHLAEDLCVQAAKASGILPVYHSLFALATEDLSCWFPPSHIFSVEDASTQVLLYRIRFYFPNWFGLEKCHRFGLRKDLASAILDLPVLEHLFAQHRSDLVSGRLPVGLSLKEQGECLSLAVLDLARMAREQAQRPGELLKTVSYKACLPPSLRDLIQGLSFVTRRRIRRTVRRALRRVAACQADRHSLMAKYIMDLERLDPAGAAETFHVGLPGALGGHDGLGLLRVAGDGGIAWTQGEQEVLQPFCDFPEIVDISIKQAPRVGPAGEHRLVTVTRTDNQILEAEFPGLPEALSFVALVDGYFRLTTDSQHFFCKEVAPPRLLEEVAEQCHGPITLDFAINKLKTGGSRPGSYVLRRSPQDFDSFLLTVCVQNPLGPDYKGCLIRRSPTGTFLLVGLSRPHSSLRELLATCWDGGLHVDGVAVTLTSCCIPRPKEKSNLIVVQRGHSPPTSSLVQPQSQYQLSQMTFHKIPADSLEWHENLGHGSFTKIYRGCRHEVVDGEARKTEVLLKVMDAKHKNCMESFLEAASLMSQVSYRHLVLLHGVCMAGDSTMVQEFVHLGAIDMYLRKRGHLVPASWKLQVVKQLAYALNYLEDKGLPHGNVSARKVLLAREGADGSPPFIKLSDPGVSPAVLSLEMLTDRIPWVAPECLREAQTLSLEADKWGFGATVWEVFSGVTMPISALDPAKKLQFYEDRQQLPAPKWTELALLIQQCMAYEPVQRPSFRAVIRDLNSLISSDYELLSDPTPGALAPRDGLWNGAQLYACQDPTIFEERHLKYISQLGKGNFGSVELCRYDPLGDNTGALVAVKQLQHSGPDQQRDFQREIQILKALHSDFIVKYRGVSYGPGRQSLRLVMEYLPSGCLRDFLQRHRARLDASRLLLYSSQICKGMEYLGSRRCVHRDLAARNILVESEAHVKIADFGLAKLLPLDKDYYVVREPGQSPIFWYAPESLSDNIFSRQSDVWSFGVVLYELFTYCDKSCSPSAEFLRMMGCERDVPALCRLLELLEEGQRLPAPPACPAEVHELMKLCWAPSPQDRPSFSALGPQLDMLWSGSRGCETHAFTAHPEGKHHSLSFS
# UniProt O00506, sequence (whole entry, looked up): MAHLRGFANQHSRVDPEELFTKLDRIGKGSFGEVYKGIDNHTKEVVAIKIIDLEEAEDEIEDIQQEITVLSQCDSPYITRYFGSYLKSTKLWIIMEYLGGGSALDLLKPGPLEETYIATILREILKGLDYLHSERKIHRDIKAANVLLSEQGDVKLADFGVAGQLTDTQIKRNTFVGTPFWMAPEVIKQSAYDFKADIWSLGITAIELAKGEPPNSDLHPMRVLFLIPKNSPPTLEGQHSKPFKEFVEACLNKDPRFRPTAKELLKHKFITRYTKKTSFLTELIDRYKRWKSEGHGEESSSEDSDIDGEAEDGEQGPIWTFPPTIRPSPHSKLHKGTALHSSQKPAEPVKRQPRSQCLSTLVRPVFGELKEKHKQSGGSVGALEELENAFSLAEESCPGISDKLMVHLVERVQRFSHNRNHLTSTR
# UniProt Q96PY6, sequence (whole entry, looked up): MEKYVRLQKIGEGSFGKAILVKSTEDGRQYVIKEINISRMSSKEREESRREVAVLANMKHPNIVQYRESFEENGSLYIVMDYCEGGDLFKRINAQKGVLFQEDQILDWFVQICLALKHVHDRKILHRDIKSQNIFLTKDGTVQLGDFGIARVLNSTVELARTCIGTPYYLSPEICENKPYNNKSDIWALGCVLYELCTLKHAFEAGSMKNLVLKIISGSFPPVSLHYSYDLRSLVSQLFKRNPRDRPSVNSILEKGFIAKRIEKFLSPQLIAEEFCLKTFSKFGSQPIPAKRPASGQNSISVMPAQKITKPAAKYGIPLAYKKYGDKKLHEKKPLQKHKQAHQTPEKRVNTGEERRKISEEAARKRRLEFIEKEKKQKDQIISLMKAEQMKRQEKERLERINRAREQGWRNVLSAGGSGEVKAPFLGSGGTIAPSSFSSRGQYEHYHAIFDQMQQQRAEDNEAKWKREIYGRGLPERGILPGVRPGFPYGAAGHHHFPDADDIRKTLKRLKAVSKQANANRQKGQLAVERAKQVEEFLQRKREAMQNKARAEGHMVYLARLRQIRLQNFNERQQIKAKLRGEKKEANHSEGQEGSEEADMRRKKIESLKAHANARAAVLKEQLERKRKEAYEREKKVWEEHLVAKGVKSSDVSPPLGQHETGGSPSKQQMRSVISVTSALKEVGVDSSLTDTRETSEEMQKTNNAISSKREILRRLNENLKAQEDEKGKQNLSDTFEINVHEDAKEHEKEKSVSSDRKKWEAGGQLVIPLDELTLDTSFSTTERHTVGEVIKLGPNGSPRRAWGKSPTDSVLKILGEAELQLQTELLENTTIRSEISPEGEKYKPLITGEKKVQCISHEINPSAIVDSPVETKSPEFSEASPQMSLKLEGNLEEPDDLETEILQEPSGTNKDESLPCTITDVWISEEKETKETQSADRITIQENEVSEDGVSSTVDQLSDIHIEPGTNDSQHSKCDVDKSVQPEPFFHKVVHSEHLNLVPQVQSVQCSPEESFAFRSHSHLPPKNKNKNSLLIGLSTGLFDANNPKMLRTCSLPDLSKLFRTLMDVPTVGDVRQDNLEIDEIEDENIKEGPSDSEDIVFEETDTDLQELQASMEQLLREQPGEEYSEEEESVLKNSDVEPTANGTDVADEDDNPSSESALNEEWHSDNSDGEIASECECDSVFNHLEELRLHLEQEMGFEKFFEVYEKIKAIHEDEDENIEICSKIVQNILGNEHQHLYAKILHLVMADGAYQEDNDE
# UniProt P49137, sequence (whole entry, looked up): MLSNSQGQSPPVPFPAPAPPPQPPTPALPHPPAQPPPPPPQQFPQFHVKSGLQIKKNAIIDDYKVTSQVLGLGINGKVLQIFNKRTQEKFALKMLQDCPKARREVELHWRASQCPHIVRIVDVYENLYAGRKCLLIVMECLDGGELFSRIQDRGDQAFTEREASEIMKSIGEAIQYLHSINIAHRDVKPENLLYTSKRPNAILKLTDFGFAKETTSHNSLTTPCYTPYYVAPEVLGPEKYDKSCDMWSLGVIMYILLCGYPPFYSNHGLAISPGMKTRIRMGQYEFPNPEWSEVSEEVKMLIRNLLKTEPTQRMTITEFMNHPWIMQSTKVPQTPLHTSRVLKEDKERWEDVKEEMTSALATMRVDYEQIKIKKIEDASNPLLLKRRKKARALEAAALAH
# UniProt Q04771, sequence (whole entry, looked up): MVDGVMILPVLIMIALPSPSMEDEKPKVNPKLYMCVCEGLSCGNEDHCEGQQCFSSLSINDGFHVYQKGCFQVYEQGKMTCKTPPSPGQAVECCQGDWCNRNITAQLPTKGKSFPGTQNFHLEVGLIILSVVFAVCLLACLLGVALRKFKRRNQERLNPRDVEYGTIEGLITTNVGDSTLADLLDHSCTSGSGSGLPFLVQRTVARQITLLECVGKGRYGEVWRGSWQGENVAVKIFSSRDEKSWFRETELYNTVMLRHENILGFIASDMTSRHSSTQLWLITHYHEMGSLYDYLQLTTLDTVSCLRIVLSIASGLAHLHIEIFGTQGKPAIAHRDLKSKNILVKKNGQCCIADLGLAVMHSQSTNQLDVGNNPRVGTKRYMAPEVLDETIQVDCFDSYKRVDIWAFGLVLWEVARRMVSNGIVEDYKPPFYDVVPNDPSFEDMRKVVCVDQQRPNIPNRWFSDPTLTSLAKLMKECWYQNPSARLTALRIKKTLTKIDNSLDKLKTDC
# UniProt Q9UKI8, sequence (whole entry, looked up): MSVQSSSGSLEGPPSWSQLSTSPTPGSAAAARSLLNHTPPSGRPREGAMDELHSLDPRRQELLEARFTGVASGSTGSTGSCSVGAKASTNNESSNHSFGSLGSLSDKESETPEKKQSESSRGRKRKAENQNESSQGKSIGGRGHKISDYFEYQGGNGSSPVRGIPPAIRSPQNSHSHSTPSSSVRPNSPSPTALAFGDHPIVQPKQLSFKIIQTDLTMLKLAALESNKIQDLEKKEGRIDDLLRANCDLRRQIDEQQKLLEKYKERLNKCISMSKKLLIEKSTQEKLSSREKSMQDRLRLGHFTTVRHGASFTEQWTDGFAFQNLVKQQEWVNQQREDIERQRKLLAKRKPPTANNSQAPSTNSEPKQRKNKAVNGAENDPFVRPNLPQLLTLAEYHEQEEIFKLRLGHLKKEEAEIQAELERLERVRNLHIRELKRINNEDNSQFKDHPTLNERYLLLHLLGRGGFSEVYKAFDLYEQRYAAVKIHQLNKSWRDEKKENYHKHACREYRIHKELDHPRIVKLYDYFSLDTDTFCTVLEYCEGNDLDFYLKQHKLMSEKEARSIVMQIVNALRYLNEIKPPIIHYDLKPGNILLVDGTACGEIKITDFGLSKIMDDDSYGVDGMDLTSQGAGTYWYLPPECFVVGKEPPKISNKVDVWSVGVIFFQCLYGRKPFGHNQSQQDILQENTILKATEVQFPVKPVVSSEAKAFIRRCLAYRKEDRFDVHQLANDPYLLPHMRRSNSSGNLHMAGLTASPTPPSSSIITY
# UniProt P06239, sequence (whole entry, looked up): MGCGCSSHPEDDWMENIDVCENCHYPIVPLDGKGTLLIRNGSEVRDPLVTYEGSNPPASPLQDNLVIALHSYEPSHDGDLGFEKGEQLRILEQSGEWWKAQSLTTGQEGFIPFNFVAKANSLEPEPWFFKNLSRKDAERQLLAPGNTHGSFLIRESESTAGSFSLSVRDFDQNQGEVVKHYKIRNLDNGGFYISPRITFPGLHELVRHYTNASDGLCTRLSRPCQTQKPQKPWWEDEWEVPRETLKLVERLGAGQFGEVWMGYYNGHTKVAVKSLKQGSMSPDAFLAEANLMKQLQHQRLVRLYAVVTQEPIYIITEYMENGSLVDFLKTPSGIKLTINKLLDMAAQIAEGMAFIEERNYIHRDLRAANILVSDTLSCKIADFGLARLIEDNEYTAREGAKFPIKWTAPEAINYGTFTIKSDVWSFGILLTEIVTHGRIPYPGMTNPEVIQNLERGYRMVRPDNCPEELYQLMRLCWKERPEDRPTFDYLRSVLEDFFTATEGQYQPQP

# Series 1 — cell line: mouse MPNST tumor cells; method: high-content immunofluorescence imaging; measured: nuclear SOX9; concentration: 10 µM; time: 12 h; setting: mean of 2 replicates; relative to: DMSO control; reading: higher = more nuclear SOX9
Compound,nuclear SOX9 intensity
O=C(NC(=O)c1c(F)cccc1Cl)NC1c2ccccc2-c2ccccc21,111 % of DMSO
COc1ccc(CCc2nc3cc(-c4c(C)noc4C)ccc3n2C[C@H](C)N2CCOCC2)cc1Cl,119 % of DMSO and 131 % of DMSO
CC(C)[C@H](N)C(=O)OCCOCn1cnc2c(=O)nc(N)[nH]c21,97.4 % of DMSO
O=C(O)c1ccc(S(=O)(=O)NC2CCCCC2)cc1,97.4 % of DMSO
O=C1c2c(O)cccc2Cc2cccc(O)c21,104 % of DMSO
C[C@H]1O[C@H](O[C@H]2[C@H](O)[C@@H](O)[C@@H](O[C@H]3[C@H](O)[C@@H](O)C(O)O[C@@H]3CO)O[C@@H]2CO)[C@H](O)[C@@H](O)[C@@H]1N[C@H]1C=C(CO)[C@@H](O)[C@H](O)[C@H]1O (stereo partly drawn),89.7 % of DMSO and 86.1 % of DMSO and 92.7 % of DMSO
CC(C)Oc1ccc2c(=O)c3cc(C(=O)O)ccc3oc2c1,94.9 % of DMSO
COc1cc(SC)ccc1C(=O)N1CCC(Cc2ccccc2)CC1,116 % of DMSO
O=C(Nc1ccc(S(=O)(=O)Nc2nccs2)cc1)C(c1ccccc1)c1ccccc1,96.8 % of DMSO
CC(=O)NCC(=O)N1[C@@H]2CC[C@H]1c1ccc(Nc3ncc(C(F)(F)F)c(NC4CCC4)n3)cc12,68.5 % of DMSO
CN(C)CCOC(=O)C(c1ccccc1)C1(O)CCCC1 (stereo not drawn),100 % of DMSO

# Series 2 — observed: cell-free assay; method: competition with immobilised ligand; concentration: 1 µM
# SMILES: CN(C(=O)c1ccccc1)c1cc(N(C)c2ccc3c(c2)CCc2ccc(C(=O)NCCN4CCOCC4)cc2C3=O)ccc1F
target,remaining binding [%]
"STK33 (Homo sapiens, UniProt Q9BYT3)",81
"TGFBR2 (Homo sapiens, UniProt P37173)",96
"EPHB4 (Homo sapiens, UniProt P54760)",96
"ACVR1 (Homo sapiens, UniProt Q04771)",100
"STK25 (Homo sapiens, UniProt O00506)",81
"PHKG2 (Homo sapiens, UniProt P15735)",89
"TLK1 (Homo sapiens, UniProt Q9UKI8)",100
"PRKAA2 (Homo sapiens, UniProt P54646)",100
"PIK3CA (Homo sapiens, UniProt P42336)",80
"PHKG1 (Homo sapiens, UniProt Q16816)",69
"CASK (Homo sapiens, UniProt O14936)",85

# Series 3 — Structure (SMILES): COc1cc2ncc(-c3ccccc3)nc2cc1OC; observed: enzyme activity; mode: inhibitor; concentration: 0.5 µM; relative to: control
target,remaining activity [%]
"NEK1 (Homo sapiens, UniProt Q96PY6)",95.9
"MAP2K2 (Homo sapiens, UniProt P36507)",102
"MST1R (Homo sapiens, UniProt Q04912)",84.2
"ACVR1B (Homo sapiens, UniProt P36896)",95.2
"LCK (Homo sapiens, UniProt P06239)",93.5
"MAP3K5 (Homo sapiens, UniProt Q99683)",108
"GSK3B (Homo sapiens, UniProt P49841)",113
"MAPKAPK2 (Homo sapiens, UniProt P49137)",85.9
"NEK6 (Homo sapiens, UniProt Q9HC98)",93.8
"TBK1 (Homo sapiens, UniProt Q9UHD2)",87.2
"JAK3 (Homo sapiens, UniProt P52333)",90.3
"TEK (Homo sapiens, UniProt Q02763)",85.7
"ULK2 (Homo sapiens, UniProt Q8IYT8)",113
"CSNK1G2 (Homo sapiens, UniProt P78368)",84

# Series 4 — organism: Sarcocystis neurona; observed: parasite growth; concentration: 10 µM; time: 96 h; setting: secondary screen
SMILES,inhibition [%]
CN(C)CCCC1(c2ccc(F)cc2)OCc2cc(C#N)ccc21 (stereo not drawn),-14.4
CCN(CC)CC1CCCCN1CC(=O)N1c2ccccc2C(=O)Nc2cccnc21 (stereo not drawn),-21.5
CC(=O)CC(c1ccccc1)c1c(O)c2ccccc2oc1=O (stereo not drawn),-23.4
Cn1cc[nH]c1=S,-16.4
O=C(O)CCc1nc(-c2ccccc2)c(-c2ccccc2)o1,-17.3
NS(=O)(=O)c1cc2c(cc1Cl)NCNS2(=O)=O,-2.9
N[C@@H](C(=O)N[C@@H]1C(=O)N2C(C(=O)O)=C(CSc3c[nH]nn3)CS[C@H]12)c1ccc(O)cc1,-25.4
O=C(C1CCCCC1)N1CC(=O)N2CCc3ccccc3C2C1 (stereo not drawn),-28.1
CCOC(=O)[C@H](CCc1ccccc1)N[C@@H](C)C(=O)N1CCC[C@H]1C(=O)O,-7.7
C=CC1=C(C(=O)O)N2C(=O)[C@@H](NC(=O)/C(=N\O)c3csc(N)n3)[C@H]2SC1,-9.3
CC(C)NCC(O)COc1ccc(COCCOC(C)C)cc1 (stereo not drawn),-19.4
CC(C(=O)O)c1ccc(-c2ccccc2)c(F)c1 (stereo not drawn),-18.5
